Published values collected from several papers.
“And” joins repeats or separate records; there may be more than shown. Numbers after ± are the reported error.

SMILES | target | test | system | setting | how to read | endpoint | value
C[C@@H]1NC(=O)[C@H](CCCNC(=N)N)NC(=O)[C@H](Cc2ccc3ccccc3c2)NC(=O)[C@H]2CCCCN2C(=O)[C@@H]([C@H](C)OP(=O)(O)O)NC(=O)CN(C)C(=O)[C@@H](C)NC(=O)c2cc3cc(c2)C(=O)NC[C@H](NC(=O)[C@@H](C)NC1=O)C(=O)N[C@@H](Cc1ccccc1)C(=O)N[C@@H](Cc1ccc2ccccc2c1)C(=O)N[C@@H](CCCNC(=N)N)C(=O)N[C@@H](CCCNC(=N)N)C(=O)N[C@@H](CCCNC(=N)N)C(=O)N[C@@H](CCCNC(=N)N)C(=O)N[C@H](C(=O)N[C@@H](CCCCN)C(N)=O)CNC3=O | Pin1 human | inhibitor, Western blot | HeLa | 5 µM | baseline: untreated | PML protein level | 3.1 fold
C=CC(=O)Nc1cc(-c2nn(C3CCC(N4CCN(C(C)=O)CC4)CC3)c3ncnc(N)c23)ccc1Oc1ccccc1 (stereo not shown) | Aurora kinases A, B and C | KiNativ profiling | – | 2 µM | – | inhibition | -1.4%
C[C@@H]1NC(=O)[C@H](CCCNC(=N)N)NC(=O)[C@H](Cc2ccc3ccccc3c2)NC(=O)[C@H]2CCCCN2C(=O)[C@@H]([C@H](C)O)NC(=O)[C@H](Cc2ccc(F)cc2)NC(=O)[C@@H](Cc2ccc(F)cc2)NC(=O)c2cc3cc(c2)C(=O)NC[C@H](NC(=O)[C@@H](Cc2ccccc2)NC1=O)C(=O)N[C@@H](Cc1ccccc1)C(=O)N[C@@H](Cc1ccc2ccccc2c1)C(=O)N[C@@H](CCCNC(=N)N)C(=O)N[C@@H](CCCNC(=N)N)C(=O)N[C@@H](CCCNC(=N)N)C(=O)N[C@@H](CCCNC(=N)N)C(=O)N[C@H](C(=O)N[C@@H](CCCCN)C(N)=O)CNC3=O | Pin1 human | inhibitor, Western blot | HeLa | 0.2 µM | baseline: untreated | PML protein level | 1.8 fold
Cc1cc(C(=O)Nc2nc3cccc(C)c3n2[C@H]2CCCCN(C(=O)/C=C/CN(C)C)C2)ccn1 | Trypanosoma brucei CLK1 wild type | thermal stability, differential scanning fluorimetry | – | – | baseline: DMSO | ΔTm | 12.6 °C and 12.7 °C
CSCC[C@H](NC(=O)CNC(=O)[C@H](CCSC)NC(=O)[C@H](CS)NC(=O)[C@@H](N)CS)C(=O)N[C@@H](CS)C(=O)NCC(=O)N[C@@H](CCCCN)C(=O)O | p38 MAPK (mouse) | Western blot | RAW264.7 | concentration not given, 6 h pretreatment, together with: LPS for 30 min | – | p-p38/p38 ratio | 0.63 ± 0.11
COc1ccccc1-c1n[nH]c2nc(N[C@H]3CC[C@H](NS(=O)(=O)CC(C)C)CC3)ncc12 | Leishmania CRK3 LINJ.36.0600 | bead competition pull-down | Leishmania donovani extract | 10 µM | baseline: vehicle | relative captured amount | 0.42
CCc1nn(C)c2nc(-c3ccc(C(=O)O)cc3)nc(NCc3ccccc3)c12 | PDE4, guinea pig | inhibitor | heart | – | – | IC50 | 1.5 µM
CC[C@@H]1CN2CCc3c([nH]c4cccc(OC)c34)[C@@H]2C[C@@H]1/C(=C\OC)C(=O)OC | rabbit anti-mitragynine polyclonal IgG | antigen binding, competitor, competitive indirect ELISA | 5% methanol | 30 min antibody-standard, 60 min antibody-antigen incubation | – | IC50 | 0.43 µg/mL and 0.41 µg/mL
CC[C@H](C)[C@@H]1NC(=O)[C@H](Cc2ccccc2)NC(=O)[C@H](C)NC(=O)[C@@H](NC(=O)[C@@H](NC(=O)[C@H](CO)NC(=O)[C@@H](N)Cc2ccc(O)cc2)[C@@H](C)O)CSC(=O)[C@H](CCSC)NC1=O | AgrC-I/AgrA phosphotransfer, Staphylococcus aureus | phosphotransfer | reconstituted in nanodiscs | concentration not given | – | inhibition | no inhibition
Cc1ccc2c(n1)c(-c1cccc(S(C)(=O)=O)c1)c(C)n2C/C(F)=C/CN | AMPA receptor (rat) | radioligand binding | – | 10 µM, rat | – | inhibition | 5%
COc1ccccc1-c1n[nH]c2nc(NC3CCN(C(=O)Cc4ccc(F)cc4F)CC3)ncc12 | CKS1 LINJ.32.3940 | bead competition pull-down | Leishmania donovani extract | 10 µM | baseline: vehicle | relative captured amount | 0.65
Nc1ncc(-c2cc(-c3cnn(CC(F)(F)F)c3)ncc2F)nc1C(=O)NC1CNCC(F)C1 (stereo not shown) | ABL1(F317I)-nonphosphorylated | KINOMEscan competition binding | – | 1 µM | baseline: DMSO control | remaining binding | 100%
CCCCCCCCCCCC(=O)C(C)C(=O)N1CCC[C@H]1C(=O)NC(C)(C)C(=O)NC(C)(C)C(=O)NC(C)(C)C(=O)N[C@](C)(CC)C(=O)NCCC(=O)N[C@@H](C)C(=O)N[C@](C)(CC)C(=O)N[C@@H](C)C(=O)N[C@@H](CC(C)C)C(=O)N[C@](C)(CC)C(=O)NCCC(=O)N[C@@H](C)C(=O)N[C@](C)(CC)C(=O)NCCC(=O)N[C@@H](C)C(=O)NC(C)(C)C(=O)NC(C)(C)C(=O)NC(C)(C)C(=O)N[C@@H](C)C(=O)N[C@@H](CC(=O)O)C(=O)O (stereo partly shown) | β-1,3-glucan | pull-down, LC-MS | – | 1 h, pH 7.0, 30 °C, together with: β-glucan 1 mg/mL | higher = more bound | bound compound (MS peak area) | 1300 a.u. and 1360 a.u.
